Results collected from several papers.
Each numbered part is a random draw from the data of one study; scales do not carry over between parts.

Study 1
Target: Phosphate system positive regulatory protein PHO4, full length, GST-tagged (PHO4, Saccharomyces cerevisiae, UniProt P07270, residues 1-312)
Technique: competition protein-binding microarray
Form: double-stranded DNA, one strand shown
Matrix: in vitro
Tested at: 2 µM
Notes: whole 60-bp probe, lowest competitor level
Together with: Cbf1 competitor, 0.05 µM
Reading: higher = stronger binding
Measurement: fluorescence intensity
Constant ends, left off below: … GTCTTGATTCGCTTGACGCTGCTG
Residues (chain): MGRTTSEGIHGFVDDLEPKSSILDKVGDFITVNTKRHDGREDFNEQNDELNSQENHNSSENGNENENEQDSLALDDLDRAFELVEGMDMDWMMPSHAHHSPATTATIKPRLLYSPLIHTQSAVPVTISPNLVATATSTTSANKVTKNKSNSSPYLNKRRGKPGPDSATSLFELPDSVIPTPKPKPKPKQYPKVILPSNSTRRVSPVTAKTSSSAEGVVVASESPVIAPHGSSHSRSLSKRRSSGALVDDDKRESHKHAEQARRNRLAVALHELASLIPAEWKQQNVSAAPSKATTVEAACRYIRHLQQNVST
GATTCACTTGATATTCACGTGCAAAAACCATTAGTA: 15700 a.u.
AAATTACTAAGTTGCCGTGTGGGTGACGCCGTATGA: 5840 a.u.
CATACCCAACCTTGTCACGCCACTTAAGATATTTGT: 6270 a.u.
CGGGGTTAAGTTTTTCACGTGCACTGCTTGCAGCAG: 12100 a.u.
TCGGTTTCAAATTGTCATGCTCCGGAGTAATTGACT: 5100 a.u.
CAGATCTTATAAGGGTTCGTGATGGTCCTGAATCGA: 4340 a.u.
GCACTACCATGTTTGCACGTGTCGGTGTCCTCATCA: 17800 a.u.
TGCGCAACAACTTGTTAAGTGGGTGTATGTCTAGAA: 4480 a.u.
CATAAGTGAATGTTCCACGTGTTGAGTTTCTTACAG: 17500 a.u.
TTGGAACCCATACCTCACGTTTGAAATTGACACCCG: 5960 a.u.
CGTCCTAGTGATTGGTCGGTGGGTGCCATGAGGAAG: 6240 a.u.

Study 2
Target: Interferon regulatory factor 7, full length, phosphomimetic (IRF7, Homo sapiens, UniProt Q92985, residues 1-503, S101K/S471D/S472D/S475D/S476D/S477D/S483D/S484D/S487D)
Technique: protein-binding microarray
Form: double-stranded DNA, one strand shown
Matrix: in vitro
Tested at: 250 nM
Notes: 60-bp whole probe
Together with: salmon DNA 0.4 mg/ml
Baseline: random background probes
Reading: higher = stronger binding
Measurement: log fluorescence
Constant ends, left off below: GCCTAGCAC … GTCTTGATTCGCTTGACGCTGCTG
Residues (chain): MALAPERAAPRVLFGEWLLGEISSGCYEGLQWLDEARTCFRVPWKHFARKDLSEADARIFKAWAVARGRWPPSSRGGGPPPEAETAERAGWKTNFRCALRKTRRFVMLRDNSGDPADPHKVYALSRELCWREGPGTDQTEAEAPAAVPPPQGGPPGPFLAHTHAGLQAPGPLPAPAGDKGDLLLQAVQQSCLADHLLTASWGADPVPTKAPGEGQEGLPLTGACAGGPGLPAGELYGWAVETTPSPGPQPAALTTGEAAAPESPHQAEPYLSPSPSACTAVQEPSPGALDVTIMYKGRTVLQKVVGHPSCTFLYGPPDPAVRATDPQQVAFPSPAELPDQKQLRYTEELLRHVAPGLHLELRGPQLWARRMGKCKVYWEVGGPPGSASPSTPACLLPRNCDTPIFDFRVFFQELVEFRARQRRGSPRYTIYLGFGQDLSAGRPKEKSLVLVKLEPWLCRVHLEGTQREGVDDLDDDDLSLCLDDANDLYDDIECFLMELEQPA
AGGGCAGGGAGGGGGACAGCGTGCTAG: 2.58 z-score
TTAGGTATCCGGTATCGGTTAGTGCTA: 0.83 z-score
TTGGGTATCCTTTTCCTTTAGTGCTAG: 1.32 z-score
CTTTCTTTGCTTCACCCTGGGTGCTAG: 1.91 z-score
GACGGTATCGGGTTCGGGACGTGCTAG: 1.69 z-score
AGCCATCTGCAGCAGGCCCCGTGCTAG: -0.709 z-score
TTAGGACTGGGTATAGGTTAGTGCTAG: -0.122 z-score
GACGATTTCGGGTTTCGAAACGTGCTA: 6.32 z-score
TTAGGACTGGGTCTCGGTTAGTGCTAG: 1.07 z-score
GACGGTTTCGGGTATCGGGAAGTGCTA: 8.06 z-score
TTAGGACTACTACTGCTTTAGTGCTAG: -0.117 z-score

Study 3
Target: Ras GTPase-activating protein-binding protein 1, RRM domain (G3BP1, Homo sapiens, UniProt Q13283)
UniProt Q13283, sequence (whole entry, looked up): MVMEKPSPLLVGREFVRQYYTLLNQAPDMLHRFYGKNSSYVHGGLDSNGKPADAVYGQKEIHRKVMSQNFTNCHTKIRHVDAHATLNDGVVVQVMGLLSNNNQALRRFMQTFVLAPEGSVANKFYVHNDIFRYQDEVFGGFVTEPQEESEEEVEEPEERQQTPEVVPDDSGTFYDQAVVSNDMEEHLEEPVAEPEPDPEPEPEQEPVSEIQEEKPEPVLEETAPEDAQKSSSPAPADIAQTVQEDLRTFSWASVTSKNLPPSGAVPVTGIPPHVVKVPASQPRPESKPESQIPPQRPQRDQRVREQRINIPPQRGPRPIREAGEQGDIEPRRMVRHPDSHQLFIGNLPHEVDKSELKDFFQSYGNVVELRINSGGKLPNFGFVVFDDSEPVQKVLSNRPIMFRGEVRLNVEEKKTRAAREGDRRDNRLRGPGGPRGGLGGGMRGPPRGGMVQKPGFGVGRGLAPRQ
Technique: RNA Bind-n-Seq
Form: RNA
Matrix: in vitro
Tested at: 1 µM
Notes: whole 134-nt RNA, ends assumed
Together with: 150 mM KCl
Baseline: input library
Reading: higher = stronger binding
Measurement: log2 enrichment
Constant ends, left off below: GGGAGUUCUACAGUCCGACGAUC … UGGAAUUCUCGGGUGUCAAGG
GCAGGAAGUAAAAACAAAUGGAACUGCUUCGGAUAGUGGCAGGGGUGGGGGUUGCUAAGGAAAGGGUGGGAUGGGAGUGGGUAAAGAGUU: 1.4
CCUGUGCUACACAUCGUAUGUACCGAAUCGGCCCCCCCGGCCCCCCCGGGCCCCCCCGGGGAAAGUAUUAUGUUACGCCGUUCGGAUCUG: -0.758
CACAGACAACACGCACCCACACAGACGCAGAGGGAAGGGGUUGGGAUGGGGACAGGGUGCACAGCAGGGCGGGGUAGGACCCCAGCCCCU: 0.118
GUCCUGUGCUACACAUCGUAUGUACCGAAUCGGGAAAGGGAAAAAAAGGGUUUUUGGGAAAGUAUUAUGUUACGCCGUUCGGAUCUGCAC: 0.181
CUCAAGUCCUGUGCUACACAUCGUAUGUACCGAAUCGGUUUGGUUUUUGGUGGAAAGUAUUAUGUUACGCCGUUCGGAUCUGCACUUCCA: -0.225
AGUCCUGUGCUACACAUCGUAUGUACCGAAUCAAACCCAAAUUUUUAAAUUUUUAAAAAAGUAUUAUGUUACGCCGUUCGGAUCUGCACU: -0.804
UGGAAGGUGGAUUUUGUUUAUUUUUUUAGCUCAUUUCCAGGGGUGGGAAUUUUUUUUUAAUAUGUGUCAUGAAUAAAGUUGUUUUUGAAA: 1.72
UUCACUCUUUGAAGGAACGUGGUACUUAGUUAGGGUGGAUGAAAAGCACAGAAGAACUUACGCUCGGCGUCCCACUCCAAAUGAUGACAC: 0.0706
AGUCCUGUGCUACACAUCGUAUGUACCGAAUCGGGUUUUUUUGGGAAAAAGGGUGGGAAAGUAUUAUGUUACGCCGUUCGGAUCUGCACU: 0.501
UGGCCCUGGUGGCAUGCGGGGAGGAAGAGGUGGCCUCAUGGAUCGUGGUGGUCCCGGUGGAAUUUUCAGAGGUGGCCGUGGUGGAGACAG: 0.383
CACAGACAACACGCACGCACACAGACACAGAGGGAAGGGGUUGGGAUGGGGACAGGGUGCACAGCAGGGCGGGGUAGGACCCCAGCCCCU: -0.194
UGGGAGGUGGAUUUUGUUUAUUUUUUUAGCUGAUUUCCAGGGGUGGGAAUUUUUUUUUAAUAUGUGUCAUGAAUAAAGUUGUUUUUGAAA: 1.94

Single results of other studies
PhoQ, residues 284 288 289 292 302 303 NLALSC  fold induction (PhoP, residues 12 14 15 18 19 VHTVL (Escherichia coli, UniProt P23836); Sort-seq, refers to: YFP reporter; E. coli; PhoQ-PhoP variant library, together with: 10 µM Mg2+; baseline: high Mg2+ state, higher = stronger signaling): 1.1

Repeated from above (study 1):
CATACCCAACCTTGTCACGCCACTTAAGATATTTGT: 6270 a.u.
CGGGGTTAAGTTTTTCACGTGCACTGCTTGCAGCAG: 12100 a.u.
TCGGTTTCAAATTGTCATGCTCCGGAGTAATTGACT: 5100 a.u.
